Measured values gathered from unrelated publications.
Each numbered part is a random draw from the data of one study; scales do not carry over between parts. Positions count from the first letter of the parent shown.

Block 1
Target: CCNB3, cyclin fold, Cln2 fusion (human)
Method: yeast growth competition, sequencing
Medium: yeast
Setting: weak parent motif
Reference: not given
Direction: higher = stronger binding
Measurement: normalised enrichment score
Starting sequence: REPIN1 docking peptide (human); QSFRGWVALVLHL; partner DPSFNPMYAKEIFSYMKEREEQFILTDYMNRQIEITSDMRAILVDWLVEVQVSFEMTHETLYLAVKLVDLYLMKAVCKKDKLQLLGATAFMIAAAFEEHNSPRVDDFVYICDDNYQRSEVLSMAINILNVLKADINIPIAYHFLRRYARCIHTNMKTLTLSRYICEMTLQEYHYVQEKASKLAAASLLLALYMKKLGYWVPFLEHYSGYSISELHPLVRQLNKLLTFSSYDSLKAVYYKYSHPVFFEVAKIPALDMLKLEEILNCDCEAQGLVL
V7A: 0.989
L13A: 0.477
H12A: 0.193
S2A: 0.041
G5A: 0.754
L9A: -0.0886

Block 2
Target: RNA binding protein fox-1 homolog 2, RRM domain, GST-SBP tag (RBFOX2, Homo sapiens, UniProt O43251-10, residues 100-194)
Method: RNA Bind-n-Seq
Molecule type: RNA
Medium: in vitro
Tested at: 365 nM
Setting: natural RNA segment, single round, ends assumed
Reference: no-protein control
Direction: higher = stronger binding
Measurement: RBNS enrichment (R)
Construct (chain): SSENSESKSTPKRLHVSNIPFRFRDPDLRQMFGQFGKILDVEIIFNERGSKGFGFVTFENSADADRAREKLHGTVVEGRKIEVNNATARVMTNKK
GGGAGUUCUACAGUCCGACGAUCGGGCUCUUCUGGUCCUGUGCAUACCUAUUGCCUUUGACAGAACGGUACAGUUUGUUUAUGCAGGAGGAUGGCAUGCCAACUUCCCAGCUGCCUACUAGCAGUUUAACAAGUGGAAUUCUCGGGUGCCAA: 0.513
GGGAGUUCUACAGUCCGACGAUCUUGCAUGCUUUAUUCUACCUCUAAGCCAUCGUGUUGACGUGGGUAUGGACGCCUGGGUCUGACCUGACACUGUGCUGGGAGAAUCAGGAUGUGUGUCUAAUGGCGAGCUGUGGAAUUCUCGGGUGCCAA: 0.704
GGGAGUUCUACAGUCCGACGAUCUUUUUUCAUUUAUCUGUGGAAACAACAGAGGUCUCUCUCUAAACCUGUUUUGUGUCAGUUUGGUGUGAGGUGACAUGGAAAAAUGUUGAUGAUUGUAGAUUAAGCUGAAAUGGAAUUCUCGGGUGCCAA: 0.68
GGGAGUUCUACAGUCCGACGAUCAACAAGGUUUGAGGAGGAAGUAGUUGCCUGUCCCAGCCUCAUCUGCUGAGCUCUUUAAGGAAGGUGGUGCAGAAAGCCGUGCUGUGCUUUCCCUGUGUGGUCUGCCCUCCUGGAAUUCUCGGGUGCCAA: 1.65
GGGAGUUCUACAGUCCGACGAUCCUUCCAGAAGCCUCGAGCCCCUCUUGACCUCCUACACCUGCUUUGGAAAGACAUGCACUUUUUAGUUGACUAAUUCUUCCUCCCAUUCCCCUCUACUUGCGAGUUAUGGAUGGAAUUCUCGGGUGCCAA: 0.524
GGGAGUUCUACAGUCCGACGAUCUUUUGAAUGUCCCACUGGACUAACCUUUCUUUUGAUGUGUGUUUUUAGUUUAGAAGUGCUAUAUUCCACAAGGGUUAAGUCAAUGAGGUUGGAAGACACCUAUCUUUUUUUGGAAUUCUCGGGUGCCAA: 0.728
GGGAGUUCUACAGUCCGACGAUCGCAGUCAAGGAAAACUAGCCUUGAAUUUUUUUUAGAUAAAAUAAGAUGGUGAUAUGAAACAAAAAGUGGCAAUUAUUGCAGGUUUCCUUUUAGUUUACAAAAGUACUGGAUGGAAUUCUCGGGUGCCAA: 0.625
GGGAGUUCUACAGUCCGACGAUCAUGGCAUGAAGUGAACUAUGGCCUUUUAUUUCCUUCCAGUGUGAACACAGCAGGUGUGAGAUGUCAUCUUGGAAGACAGGCCUUGCAGAAAUAGGCCUACAUCCAAAAUAUGGAAUUCUCGGGUGCCAA: 1.96
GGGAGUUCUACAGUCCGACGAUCCUAAAGACGAUUUUUGAGCAUCCCACUGGGAUUAUUUAAUUUUUCUUUUUGACGUGUGUUUUUAGUUUAGAAGUGCUGUAUUCCACAAGGUUUAAGUCAGUGAGGUUGGAUGGAAUUCUCGGGUGCCAA: 0.761
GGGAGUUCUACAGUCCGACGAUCUCUCAAAACUACCAUUUGAAUUUCAAGAACUCUGCUGCAAAACCACUCUGAGAAUGUUUCCAAGUGAGAGUCACUUUCUUGACCCUCAAGAGAAGCUAGACGACACAGAAUGGAAUUCUCGGGUGCCAA: 0.452
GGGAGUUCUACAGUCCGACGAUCCAAUAGGGUUUAUUUGGCAGUGGGAUUCACAUCUUCCUGCACUCCUGCCAGCAGUACAGGGCACAGCCCAAGCCACCAUAGGCCAGCCUGGAGUCUUUUUCAUGCUCUGGUGGAAUUCUCGGGUGCCAA: 0.237
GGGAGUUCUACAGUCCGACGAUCCCUUUCUGAGGCUUGGCUUUAGAAAUAACCUUUUGGAACAAACUAUAAAUAUUUCCUAGCAAGGAUCAUAAGCCCAAUUUCCGGAUUUGCCCCUCUGAGAAGCAUGAAUGUGGAAUUCUCGGGUGCCAA: 2.64

Block 3
Target: ABI1, truncated, D143A, DHFR fusion (Arabidopsis thaliana)
Method: DHFR PCA, deep sequencing
Medium: yeast
Setting: methotrexate growth selection, single substitutions
Together with: (+)-ABA 0.0091 µM
Reference: wild-type fitted maximum
Direction: higher = stronger binding
Measurement: relative binding score
Starting sequence: PYL1, truncated, DHFR fusion (Arabidopsis thaliana); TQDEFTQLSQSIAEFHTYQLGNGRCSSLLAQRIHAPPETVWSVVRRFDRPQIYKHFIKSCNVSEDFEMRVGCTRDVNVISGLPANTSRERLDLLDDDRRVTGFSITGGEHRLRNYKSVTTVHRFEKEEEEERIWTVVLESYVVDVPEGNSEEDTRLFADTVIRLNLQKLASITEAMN; partner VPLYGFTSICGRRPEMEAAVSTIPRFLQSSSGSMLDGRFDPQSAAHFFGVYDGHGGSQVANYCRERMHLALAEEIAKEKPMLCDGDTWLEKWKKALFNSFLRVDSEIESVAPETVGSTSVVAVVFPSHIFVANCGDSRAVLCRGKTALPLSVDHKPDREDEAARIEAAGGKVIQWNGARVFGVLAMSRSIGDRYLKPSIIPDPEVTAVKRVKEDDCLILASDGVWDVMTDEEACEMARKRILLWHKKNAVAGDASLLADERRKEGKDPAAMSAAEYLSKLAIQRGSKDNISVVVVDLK
T1E: 30.8%
E38Q: 0.449%
L93E: -4.16%
T1C: 28.9%
L29M: 0.85%
N177Q: 32.6%
L166E: -5.21%
G108R: -3.57%
R98P: -1.57%
L94R: -5.81%
T135M: -13.3%
E38I: 2.92%
T154P: -7.23%

Further values, each from its own experiment
PhoQ, residues 284 288 289 292 302 303 SMYGEC — fold induction (PhoP, residues 12 14 15 18 19 LHATL (Escherichia coli, UniProt P23836); Sort-seq, refers to: YFP reporter; E. coli; PhoQ-PhoP variant library, together with: 10 µM Mg2+; reference: high Mg2+ state, higher = stronger signaling): 9.69

Excerpt of the above (block 2):
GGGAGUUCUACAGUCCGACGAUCAACAAGGUUUGAGGAGGAAGUAGUUGCCUGUCCCAGCCUCAUCUGCUGAGCUCUUUAAGGAAGGUGGUGCAGAAAGCCGUGCUGUGCUUUCCCUGUGUGGUCUGCCCUCCUGGAAUUCUCGGGUGCCAA: 1.65
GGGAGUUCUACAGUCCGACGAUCCUUCCAGAAGCCUCGAGCCCCUCUUGACCUCCUACACCUGCUUUGGAAAGACAUGCACUUUUUAGUUGACUAAUUCUUCCUCCCAUUCCCCUCUACUUGCGAGUUAUGGAUGGAAUUCUCGGGUGCCAA: 0.524
